Earlier results, collected from citations in different studies.
Lines come from different studies, so protocols differ. Numbers after ± are the reported error.

C=CCc1cc(OC)c(OC)c(OC)c1OC  IC50 (A549; cell growth): 122 µM
N#CC1=C(N)Oc2c(c(=O)oc3ccccc23)C1c1ccc(-n2nnc3ccccc32)cc1 (stereo not shown)  IC50 (MCF7; cell growth): 12.5 ± 2.72 µM
[Cl][Au-][P+](c1ccccc1)(c1ccccc1)c1cc[cH-]c1.[Cl][Au-][P+](c1ccccc1)(c1ccccc1)c1cc[cH-]c1.[Cl][Ti+2][Cl]  IC50 (DU-145; cell growth; 24 h): 27.3 µM
CC1=C(C)C(=O)OC(C(C)(O)C2(O)CCC3(O)C4CC5OC56C(O)C=CC(=O)C6(C)C4CCC32C)C1 (stereo not shown)  IC50 (Hep3B; cell growth): 0.2 µM
CC(=O)C[Se]C(=O)c1ccc(Cl)cc1  IC50 (MCF7): 1.5 µM
CCCCCCCC(=O)NCC(=O)N[C@@H](C)C(=O)N[C@@H](CC(C)C)C(=O)N[C@](C)(CC)C(=O)N[C@@H](C)C(=O)N[C@H](C(=O)N[C@H](CO)CC(C)C)[C@@H](C)CC  IC50 (MDA-MB-231; cell viability, MTT): 5 µM
CC[C@H](C)[C@H](NC(=O)[C@H](CCCCN)NC(=O)[C@H](CCCCN)NC(=O)[C@H](Cc1c[nH]c2ccccc12)NC(=O)[C@H](CC(N)=O)NC(=O)[C@@H](N)C(C)C)C(=O)N[C@@H](CC(C)C)C(=O)NCC(=O)N[C@@H](CCCCN)C(=O)N[C@H](C(=O)N[C@H](C(=O)N[C@@H](CCCCN)C(=O)N[C@H](C(=O)N[C@H](C(=O)N[C@@H](CCCCN)C(N)=O)C(C)C)C(C)C)[C@@H](C)CC)[C@@H](C)CC  IC50 (eukaryotic cells; cytotoxicity): 4.5 to 15 µM
C#CCN[C@@H]1C=C[C@]2(O[C@H]([C@@H](CC)C(=O)[C@@H](C)[C@@H](O)[C@H](C)[C@@H]3O[C@@H]([C@@H](CC)C(=O)O)CC[C@@H]3C)[C@@H](C)C[C@H]2C)O[C@@]12CC[C@@](C)([C@H]1CC[C@](O)(CC)[C@H](C)O1)O2  IC50 (HMLER CD24 low/CD44 high; cell viability): ~0.1 µM
CC1=C(C)C(=O)OC(C(C)(O)C2(O)CCC3(O)C4CC5OC56CC=CC(=O)C6(C)C4CCC32C)C1 (stereo not shown)  IC50 (MDA-MB-231; cell growth): 0.97 µM
F[P-](F)(F)(F)(F)F.NCCN.[Cl][Ru+].c1ccc(-c2ccccc2)cc1  IC50 (HBL-100): 54 µM

Excerpt of the above:
C=CCc1cc(OC)c(OC)c(OC)c1OC  IC50 (A549; cell growth): 122 µM
